Published values pooled from the literature.
Every numbered part comes from another study and shows a few of its results, in no order. Changes are numbered by the printed parent chain.

Sample 1 — technique: protein binding microarray; molecule type: double-stranded DNA, one strand shown; sample: in vitro; concentration: not given; baseline: not given; direction: higher = stronger binding; quantity: E-score
Target: Histone acetyltransferase KAT6A, winged helix 2, GST fusion (KAT6A, Homo sapiens, UniProt Q92794, residues 85-181)
Setting: 8-mer, flanks averaged, mean of 2 arrays, mostly near background
Residues (chain): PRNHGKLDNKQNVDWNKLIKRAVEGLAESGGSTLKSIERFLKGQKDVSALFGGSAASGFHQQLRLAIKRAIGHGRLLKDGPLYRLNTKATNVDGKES
GAGACAAA: -0.0458
CTAGGCAG: -0.0799
CGGGCTTA: 0.0215
CGTGCTTC: 0.109
GGCCTGTA: -0.178
ATCCAAAC: 0.052
GATAGTGC: -0.155
ACATTTAC: -0.158
GCTTACTA: 0.0841
GCAACTCA: 0.114
ATCGGCTA: -0.0134
CCACTGCG: 0.168
GGATCGAA: 0.0781
CCTGGACG: -0.15
CTACCCAA: -0.085
CCACCGGA: 0.193
AATCGTGT: -0.0559
TCAAACGA: 0.16
CTGTCGAC: -0.0715
AATGTGCG: 0.065
CTGTCAGC: 0.0673
CGGGGCAC: 0.103

Sample 2 — technique: universal PBM; molecule type: double-stranded DNA, one strand shown; sample: in vitro; concentration: 600 nM; direction: higher = stronger binding; quantity: E-score
Target: Sal-like protein 4, full length isoform A (SALL4, Homo sapiens, UniProt Q9UJQ4, residues 1-1053)
Chain of UniProt Q9UJQ4 (whole entry, looked up): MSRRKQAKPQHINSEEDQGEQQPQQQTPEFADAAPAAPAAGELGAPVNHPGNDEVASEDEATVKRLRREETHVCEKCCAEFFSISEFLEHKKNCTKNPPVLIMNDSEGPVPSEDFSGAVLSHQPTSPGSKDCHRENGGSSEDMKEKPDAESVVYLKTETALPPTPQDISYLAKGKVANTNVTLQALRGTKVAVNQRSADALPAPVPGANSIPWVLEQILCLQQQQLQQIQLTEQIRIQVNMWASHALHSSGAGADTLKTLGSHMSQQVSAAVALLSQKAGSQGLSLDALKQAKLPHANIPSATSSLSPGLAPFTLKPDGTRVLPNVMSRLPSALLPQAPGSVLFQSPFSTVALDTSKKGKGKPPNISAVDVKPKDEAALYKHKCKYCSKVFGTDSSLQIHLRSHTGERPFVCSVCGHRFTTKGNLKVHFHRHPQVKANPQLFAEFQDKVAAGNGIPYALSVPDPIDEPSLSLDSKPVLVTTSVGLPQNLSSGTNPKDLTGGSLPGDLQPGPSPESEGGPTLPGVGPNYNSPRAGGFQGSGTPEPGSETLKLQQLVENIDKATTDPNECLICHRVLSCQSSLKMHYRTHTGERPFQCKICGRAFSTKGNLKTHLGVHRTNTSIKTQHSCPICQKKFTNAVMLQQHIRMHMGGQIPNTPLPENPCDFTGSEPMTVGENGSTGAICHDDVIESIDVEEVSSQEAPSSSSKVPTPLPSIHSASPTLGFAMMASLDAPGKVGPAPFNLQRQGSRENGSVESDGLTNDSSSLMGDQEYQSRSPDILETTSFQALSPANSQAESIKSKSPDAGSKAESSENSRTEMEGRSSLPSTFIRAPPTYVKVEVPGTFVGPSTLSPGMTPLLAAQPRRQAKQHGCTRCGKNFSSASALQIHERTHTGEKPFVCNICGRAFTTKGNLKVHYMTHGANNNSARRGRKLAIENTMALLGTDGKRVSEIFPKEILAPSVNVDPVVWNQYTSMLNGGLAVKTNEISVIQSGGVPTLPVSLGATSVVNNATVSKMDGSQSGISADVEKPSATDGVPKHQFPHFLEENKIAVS
Setting: 8-mer, flanks averaged, mean of replicates
ATGGATAA: 0.257
CCAAAGTA: 0.103
ACGTCGTG: -0.00771
AGTACCAT: 0.128
AGAGACAT: 0.136
CCGTAACG: -0.238
ACGGGATG: -0.243
CAGACCAG: -0.184
ATGAACCA: 0.165
CGACGTCA: -0.269
CATTCCGG: -0.243
ACGCTACA: 0.0293
ACAGGCGT: -0.18
CTGGCCGC: -0.212
GGGGCAAC: -0.25
GGAACCTA: -0.0743
AATAAGAT: 0.26
CTCTCTCC: -0.239
CACCTCAA: -0.137
AGCGAGAA: 0.096
AAGAGAGA: 0.0178
GGTTGTAC: -0.115
ATGATTCG: 0.0222
GGAAGCAC: -0.15
CCAATGCC: -0.189

Sample 3 — technique: DHFR PCA, deep sequencing; sample: yeast; together with: (+)-ABA 0.11 µM; baseline: wild-type fitted maximum; direction: higher = stronger binding; quantity: relative binding score
Target: ABI1, truncated, D143A, DHFR fusion (Arabidopsis thaliana)
Setting: methotrexate growth selection, single substitutions
Starting sequence: PYL1, truncated, DHFR fusion (Arabidopsis thaliana); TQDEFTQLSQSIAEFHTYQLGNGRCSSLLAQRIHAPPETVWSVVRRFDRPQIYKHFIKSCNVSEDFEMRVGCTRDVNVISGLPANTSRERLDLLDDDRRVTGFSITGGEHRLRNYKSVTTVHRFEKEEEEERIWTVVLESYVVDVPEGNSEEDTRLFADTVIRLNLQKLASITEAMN; partner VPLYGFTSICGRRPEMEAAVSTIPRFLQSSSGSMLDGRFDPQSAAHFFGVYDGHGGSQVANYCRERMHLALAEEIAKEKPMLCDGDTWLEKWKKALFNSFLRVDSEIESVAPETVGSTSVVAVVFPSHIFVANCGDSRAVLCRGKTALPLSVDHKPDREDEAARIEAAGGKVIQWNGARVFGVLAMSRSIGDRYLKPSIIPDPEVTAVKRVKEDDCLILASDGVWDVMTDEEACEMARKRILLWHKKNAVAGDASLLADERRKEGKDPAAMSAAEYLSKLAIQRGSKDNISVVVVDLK
H55Q: 47%
F47Y: 0.821%
K58N: 2.19%
L94F: 43.3%
R90V: 10.1%
E174R: -4.74%
F56Y: -1.18%
T101H: -4.77%
L156T: 26.3%
A35W: -1.16%
E130V: 27.1%
L94P: -5.96%
R99Q: 12.9%
E147V: 16.6%
V142T: 13.9%
Q7N: 19.1%
S117K: -13.1%
R163P: 0.429%

Sample 4 — technique: RNA Bind-n-Seq; molecule type: RNA; sample: in vitro; concentration: not given; baseline: input RNA pool; direction: higher = stronger binding; quantity: bound/input enrichment
Target: RING finger protein unkempt homolog, zinc fingers 1-6, GST-SBP tag (UNK, Homo sapiens, UniProt Q9C0B0, residues 30-357)
Setting: RNA with constant flanks, human and mouse sites, ends assumed
Residues (chain): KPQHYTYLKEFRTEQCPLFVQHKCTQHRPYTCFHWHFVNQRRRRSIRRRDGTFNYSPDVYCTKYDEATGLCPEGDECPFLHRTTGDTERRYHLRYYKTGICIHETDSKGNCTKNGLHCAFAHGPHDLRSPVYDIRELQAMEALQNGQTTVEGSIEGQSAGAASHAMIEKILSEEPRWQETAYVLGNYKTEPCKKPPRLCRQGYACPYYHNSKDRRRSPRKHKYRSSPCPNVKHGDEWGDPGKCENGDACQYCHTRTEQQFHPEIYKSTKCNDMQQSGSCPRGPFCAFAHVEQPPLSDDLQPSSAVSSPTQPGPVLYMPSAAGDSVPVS
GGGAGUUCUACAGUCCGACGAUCAUUCCCUUAGUUGCUCAGGAAUUAAUGAAAAAAAUGAUACGUCAGUUUGCAAUUGAGUACAUCUCAAAAAGCGGUAAAAUUCAAGAAAAUAGAAAUGGUUCAAUUGGAGCAAGUCUCGUGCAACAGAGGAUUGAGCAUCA: 0.452 ratio
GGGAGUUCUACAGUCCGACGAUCCUCCUGUCUCGAUUUACUCGAAAUGAGUUUAAUCUGGAAAGCAAGAGUACCAUUGGAGUAGAGUUUGCAACAAGAAGCAUCCAGGUUGAUGGGAAAACAAUAAAGGCACAGAUAUGGGACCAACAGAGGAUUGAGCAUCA: 0.287 ratio
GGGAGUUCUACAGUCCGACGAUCUGGUAUGGCCUUGGGCAGACUUACGAAAUCCUUAAAAUGCCAUUUUAUUGCCUUUAUUAUUAUAGACGGGCCCACCAGCUUCGUCCCAAUGAUUCUCGCAUGCUGGUUGCCUUAGGAGAACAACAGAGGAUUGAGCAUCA: 1.05 ratio
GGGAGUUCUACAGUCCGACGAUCUACUCUGACAAGCACAACUGUCCGUAUGAUUACAAAGCAGAAGCUGCAGCAAAAAUCAGAAAAGAGAAUCCAGUUGUUGUGGCUGAAAAAAUUCAGAGAAUAUAAAUUACUUCUUGUGAACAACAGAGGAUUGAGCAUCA: 0.14 ratio
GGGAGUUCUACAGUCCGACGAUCAUGACAGAAUCCAGCCAUUUCUUCCACCUGUGAUGCCAGUUGCUUGCUCAGGCCUCUUUCUCCUGUGGCUUUCUAGUCUUCUAUUCCCAGCUGUGAAGACCACACACAGAUGAACAAAUGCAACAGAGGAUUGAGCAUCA: 0.987 ratio
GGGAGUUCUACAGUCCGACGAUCACAAUCAGGCUUCUGCAAAAAGAGGAAGUUUGGAAACUAAAGAUGAUAUUCCAUUUCGAAAAGUUCUUGGUAAUCCGGGUAGAGGAUCGAUUAAGACUGUAGCAGGAAGUGGAAUAGCUCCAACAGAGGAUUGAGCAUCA: 0.304 ratio
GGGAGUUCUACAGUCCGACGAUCGGGCCUUGGAAGCUGACGGCGUCCAAGACCCACAUCAUGAAGUCUGCGGAUGUGGAAAAGUUAGCUGACGAGCUGCACAUGCCAUCCCUCCCUGAAAUGAUGUUUGGAGACAACGUUCUACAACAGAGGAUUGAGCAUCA: 0.0332 ratio
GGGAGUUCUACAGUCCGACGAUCAAAAAUUUGCAAGAAGAAAUUGACGCCUUAGAAUCCAGAGUGGAAUCAAUUCAGCGAGUGUUAGCAGAUUUGAAAGUUCAGUUGUAUGCAAAAUUCGGGAGCAACAUAAACCUUGAAGCUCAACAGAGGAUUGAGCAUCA: 0.505 ratio
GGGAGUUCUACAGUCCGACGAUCACACCCUGGUUCUGGGCCAGAGAUAAAACCAAUACCUGGUCUGGGCCCAGGGAAGAUCCCAAUAGCAGGUCCAGGUUUAGGUCUAAGAAAGAAGUCUAUGUUGAAUCAAGUUCUGGAUCUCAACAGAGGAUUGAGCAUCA: 0.145 ratio
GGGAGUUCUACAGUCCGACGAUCAAUCAGUAGAAUUACAUAAUACUAAAGUUGCAGUUGAAAGAAUAUCCAAGUAUGUGUUGGUAGUUACUAAAAGAAUUAUAGCUGUUAUUGCCUUGUAUUUAUAGCCCUUGUUUCAGGUUUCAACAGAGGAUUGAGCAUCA: 5.16 ratio
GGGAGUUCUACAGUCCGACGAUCGUUGAGCCAGCAAGUCAUGGGAGCAAGGGGUAGAUGGACAGUCCGGCACUACAGAACCGUCAUAGGUCUCAAGAGGUCUGGGUGGGAGGUGAAGGGAGAGAACCAAAGCAGAUAGGGAAUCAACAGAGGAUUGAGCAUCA: 0.85 ratio

Sample 5 — target: CCNE1, cyclin fold, Cln2 fusion (human); technique: yeast growth competition, sequencing; sample: yeast; setting: weak parent motif; baseline: not given; direction: higher = stronger binding; quantity: normalised enrichment score
Starting sequence: ORC1 docking peptide (human); PRARKRLELGNLG
L7A: 0.537
R4K: -0.217
R2G: -0.206
R2Q: 0.148
P1I: 0.142
N11G: 0.888
R2L: 0.115
R6V: 0.0758
L9H: 0.368
R2Y: -0.158
K5H: 0.61
E8L: 1.29
L9R: 0.135
R4Y: 0.246
L12G: 0.0488
A3K: -0.331
P1R: 0.806
G10V: 0.0417
A3S: 0.79
R6I: 1.03
L9C: 1.19
K5V: -0.284
N11P: 1.23
L9D: -0.0788
L7V: -0.677

Sample 6 — target: BATF, bZIP domain (human); technique: DHFR protein complementation; sample: yeast; baseline: wild-type JUN-FOS pair; direction: higher = stronger binding; quantity: binding fitness
Setting: single substitutions, most at no-binding floor
Starting sequence: JUN, bZIP domain (human); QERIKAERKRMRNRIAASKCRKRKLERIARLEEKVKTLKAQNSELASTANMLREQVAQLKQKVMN; partner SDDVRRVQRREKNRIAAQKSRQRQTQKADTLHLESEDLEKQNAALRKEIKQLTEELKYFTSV
V56R: -0.919 natural log
R30D: 0.119 natural log
S47H: 0.0479 natural log
I28P: -0.0776 natural log
M51I: 0.00146 natural log
V35N: -0.188 natural log
T37S: 0.00586 natural log
L45S: -1.04 natural log
M51C: -0.00918 natural log
E54L: -0.163 natural log
S43M: 0.00688 natural log
M51N: 0.0185 natural log
K36H: -0.0956 natural log
S47N: -0.0104 natural log
L59H: -0.12 natural log
V56P: -1.11 natural log
V35M: -0.117 natural log
E54A: -0.0644 natural log
L45I: -0.969 natural log
K36L: -0.0464 natural log
L52D: -1.33 natural log
L31T: -0.198 natural log
A40K: 0.0392 natural log
A29E: -0.104 natural log
L45T: -1.22 natural log
